Experimental data gathered from unrelated publications.
Each numbered part is a random draw from the data of one study; scales do not carry over between parts.

Study 1
Target: RNA binding protein fox-1 homolog 2, RRM domain, GST-SBP tag (RBFOX2, Homo sapiens, UniProt O43251-10, residues 100-194)
Method: RNA Bind-n-Seq
Form: RNA
Matrix: in vitro
Tested at: 365 nM
Notes: natural RNA segment, single round, ends assumed
Relative to: no-protein control
Reading: higher = stronger binding
Constant ends, left off below: GGGAGUUCUACAGUCCGACGAUC … UGGAAUUCUCGGGUGCCAA
Target sequence (chain): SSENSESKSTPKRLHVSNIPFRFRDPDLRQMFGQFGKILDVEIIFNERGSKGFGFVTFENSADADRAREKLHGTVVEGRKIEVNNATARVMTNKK
| Sequence | RBNS enrichment (R) |
| --- | --- |
| ACACCUGGGCUCCUCACUGGGGGAAACAAAAGCCUAUAAACCCCAGCAACAAAACCUAGUCCUCUUAGACGUUCUUGCGCUUUGAUUUUUUUAGGGCGUGUGCCCUGUUA | 0.476 |
| CUAAAUGGUGUGUUAAAAUUAGGGUUUCUUUGCCUCUCUACACUACACUAAUCUGCCUAAAGGUGGUUGUUUCAUAUUUAUAAUGCUAAUUAUCAUACCUACCUACUUUA | 0.664 |
| AAGUGAAGUUCACACCCAGCACCCACAACCUUUAUCAGUCCUCCCGACUCCCCACCCUUUUGCAUUCUGGGAGCCCACAUCUAUUUUUUACACCCCCCCCCACAAGAGGG | 2.28 |
| AAGUGCCUGUAGGCUCCUGGGACUCUGCAGCUAGGUAAAGAGUUCUAAGUUCAUCUGGCCCACGUGCAAAGUCAACAGUAUUGCCUUAAGAUUUCAGUUUUUUUUUUUUU | 1 |
| GGACUAGAAUAAAGACCUCUGGGGCUGGAGAGAGAGCUCAGUGGUUAAGAGUACUGGCUGUUGGGGUUGGUGAUUUAGCUCAGUGGCAGAGCACUUGCCUAGCAAGCACA | 0.57 |
| AUUCCCUUUUUAAAUGAGCUUUCAGGAAGUUGCUGAGAAAUGGGGUGGAAUAGGGAACUGUAAUGGCCACUGAAGCACGUGAGAGACCCUCGCAAAAUGAUGUGAAAGGA | 0.459 |
| UUCCACAAAGGAGGGCUGAGAGUGAACGUGAUCAUACGUAGUUGUGAAAUCGGUUUGAUUGAGUGGGCUCUGAAAGGGGCAUUUAAUGGUCUUGUUUCUUCAUAACUCAC | 0.518 |
| GUAAACUGAGUUUGCUAAAUUGGGUCCCCAGAGGAUACCAUGAGAGUGGGUAGGGCAAAAAGAGCCCUUUCCGCCCUCUACCCAUCUAAUUCUGAUCCUCUACCUGUAGG | 0.266 |

Study 2
Target: Prothrombin, mature alpha-thrombin (F2, Homo sapiens, UniProt P00734)
Method: aptamer microarray, sandwich
Form: DNA with 2'F-ANA
Matrix: in vitro
Tested at: 200 nM
Notes: whole 15-mer aptamer, many near background
Together with: Cy3 exosite-II aptamer, 400 nM
Reading: higher = stronger binding
Sequence: GGTTGGTGTGGTTGG
| Modification | mean fluorescence intensity [a.u.] |
| --- | --- |
| 2'F-ANA at 1 2 3 4 5 8 10 11 12 13 14 15 | 58.1 |
| 2'F-ANA at 1 2 6 7 8 9 13 14 15 | 102 |
| 2'F-ANA at 1 4 5 7 8 9 10 12 13 | 45.5 |
| 2'F-ANA at 1 2 4 5 7 10 11 14 | 45.8 |
| 2'F-ANA at 3 5 7 8 9 10 11 12 13 | 66.9 |
| 2'F-ANA at 2 3 5 9 10 13 14 15 | 49.6 |
| 2'F-ANA at 1 2 6 7 9 11 13 14 | 52.6 |
| 2'F-ANA at 2 3 4 5 6 7 8 9 10 13 14 15 | 53.9 |
| 2'F-ANA at 1 4 6 7 9 10 11 12 14 15 | 49.2 |
| 2'F-ANA at 1 3 7 9 11 12 13 14 | 104 |
| 2'F-ANA at 1 2 5 10 | 46.8 |
| 2'F-ANA at 1 3 5 6 7 12 | 131 |
| 2'F-ANA at 2 6 9 10 11 12 14 15 | 79.2 |
| 2'F-ANA at 2 3 6 9 13 14 | 342 |
| 2'F-ANA at 2 3 5 6 8 9 10 12 13 | 55 |
| 2'F-ANA at 1 3 5 6 8 12 13 14 | 47.3 |
| 2'F-ANA at 1 2 3 4 5 8 9 10 13 15 | 83.2 |
| 2'F-ANA at 2 7 8 9 10 12 14 | 97.9 |
| 2'F-ANA at 5 10 11 13 14 | 45.8 |
| 2'F-ANA at 2 3 4 7 12 15 | 922 |
| 2'F-ANA at 2 3 4 6 11 12 13 | 551 |

Study 3
Target: Sal-like protein 4, full length isoform B (SALL4, Homo sapiens, UniProt Q9UJQ4-2, residues 1-616)
Method: universal PBM
Form: double-stranded DNA, one strand shown
Matrix: in vitro
Tested at: not given
Notes: 8-mer, flanks averaged, mean of replicates
Reading: higher = stronger binding
Target sequence (chain): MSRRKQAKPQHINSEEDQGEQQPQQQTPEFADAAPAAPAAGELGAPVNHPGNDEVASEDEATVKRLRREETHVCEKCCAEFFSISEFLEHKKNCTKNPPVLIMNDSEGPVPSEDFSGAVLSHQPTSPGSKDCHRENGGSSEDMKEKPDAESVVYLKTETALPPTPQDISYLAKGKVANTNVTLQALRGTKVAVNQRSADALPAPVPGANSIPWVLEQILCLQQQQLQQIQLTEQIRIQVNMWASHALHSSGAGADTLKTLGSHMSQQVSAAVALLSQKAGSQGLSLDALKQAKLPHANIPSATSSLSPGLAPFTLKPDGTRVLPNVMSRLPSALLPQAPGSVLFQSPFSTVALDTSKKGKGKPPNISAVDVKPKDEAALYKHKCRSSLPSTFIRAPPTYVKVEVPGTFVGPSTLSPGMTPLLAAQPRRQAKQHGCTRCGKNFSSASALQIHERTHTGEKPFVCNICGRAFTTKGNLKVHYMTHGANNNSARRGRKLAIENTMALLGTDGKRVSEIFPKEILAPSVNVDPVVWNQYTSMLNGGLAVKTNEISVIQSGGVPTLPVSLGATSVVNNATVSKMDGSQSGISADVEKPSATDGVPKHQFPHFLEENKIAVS
| Sequence | E-score |
| --- | --- |
| CAGCTTTC | -0.181 |
| CGGAGACG | -0.117 |
| CGTCCTCA | -0.051 |
| AACGTCCC | -0.106 |
| AATAGTGC | 0.0792 |
| CCGGACAA | -0.132 |
| ATCGCGGA | -0.138 |
| CCATACCC | -0.106 |
| CCATTCGG | -0.116 |
| ATAATTGA | 0.366 |
| CAGTTCTC | -0.0887 |
| CAATGGTA | 0.14 |
| AGTATAGC | 0.0861 |
| CCCCGCAC | -0.353 |
| ATTTTCCA | 0.229 |
| GTCATAGA | 0.101 |
| CCGAATCC | -0.286 |
| ACAATCAA | 0.0814 |

Study 4
Target: Interferon regulatory factor 5, full length, phosphomimetic (IRF5, Homo sapiens, UniProt Q13568-2, residues 1-514, S451D/S453D/S456D/S462D)
Method: protein-binding microarray
Form: double-stranded DNA, one strand shown
Matrix: in vitro
Tested at: 940 nM top
Notes: 60-bp whole probe
Together with: salmon DNA 0.4 mg/ml
Relative to: random background probes
Reading: higher = stronger binding
Constant ends, left off below: GCCTAGCAC … GTCTTGATTCGCTTGACGCTGCTG
| Sequence | fitted relative affinity [z-score] |
| --- | --- |
| TTAGGACTGCAACTGCTTTAGTGCTAG | -0.566 |
| TTAGATATGAGTTTCGATTAGTGCTAG | 6.94 |
| GACGAACTGAGTCTCGAGATGTGCTAG | 0.851 |
| GACGATATAGGGTATCGAGACGTGCTA | 0.627 |
| AAAATTTTAACCCTTATTCTGTGCTAG | 0.502 |
| GACGGACTGGGGTTGCGGGACGTGCTA | -0.00133 |
| TTAGATTTCAGTTTTGATTAGTGCTAG | 1.74 |
| TTAGGACTGGACTAACGGTTAGTGCTA | -0.594 |
| TTAGGTTTCGTGACTGGGTTAGTGCTA | 4.3 |
| CACGGTTTCGGTTTCGGGACGTGCTAG | 13.4 |
| GACGGACTGGGATTGGGGACGTGCTAG | -0.0437 |
| GTAGGACTGCTTTTCCTTTAGTGCTAG | -0.372 |
| TTGGGTTTCCTTTTCCTTTAGTGCTAG | 1.64 |
| GTAGGTTTCCTTCTCCTTTAGTGCTAG | 1.95 |
| TCAGATTTTGGTCTTTCACTGTGCTAG | 0.646 |
| TTCTTTACCACATTCTCTGCGTGCTAG | 1.6 |
| TCGAGTCTGCAACATGGGACTGTGCTA | -0.152 |
| TCAGTTTCTGATATGGTACTGTGCTAG | 3.75 |
| TCATGCTTTCTTTTATGACTGTGCTAG | 1.38 |

For quick reference, copied from above (study 4):
| Sequence | fitted relative affinity [z-score] |
| --- | --- |
| GTAGGTTTCCTTCTCCTTTAGTGCTAG | 1.95 |
| TTAGGTTTCGTGACTGGGTTAGTGCTA | 4.3 |
| TCATGCTTTCTTTTATGACTGTGCTAG | 1.38 |
| TTAGGACTGGACTAACGGTTAGTGCTA | -0.594 |
| TCGAGTCTGCAACATGGGACTGTGCTA | -0.152 |
| GACGAACTGAGTCTCGAGATGTGCTAG | 0.851 |
| TTCTTTACCACATTCTCTGCGTGCTAG | 1.6 |
| GACGGACTGGGATTGGGGACGTGCTAG | -0.0437 |
